Assay results of several laboratories.
± marks the error that the study gave.
CNR2: Cannabinoid receptor 2 (CNR2, Homo sapiens, UniProt P34972)
Chain of UniProt P34972 (whole entry, unmodified, looked up): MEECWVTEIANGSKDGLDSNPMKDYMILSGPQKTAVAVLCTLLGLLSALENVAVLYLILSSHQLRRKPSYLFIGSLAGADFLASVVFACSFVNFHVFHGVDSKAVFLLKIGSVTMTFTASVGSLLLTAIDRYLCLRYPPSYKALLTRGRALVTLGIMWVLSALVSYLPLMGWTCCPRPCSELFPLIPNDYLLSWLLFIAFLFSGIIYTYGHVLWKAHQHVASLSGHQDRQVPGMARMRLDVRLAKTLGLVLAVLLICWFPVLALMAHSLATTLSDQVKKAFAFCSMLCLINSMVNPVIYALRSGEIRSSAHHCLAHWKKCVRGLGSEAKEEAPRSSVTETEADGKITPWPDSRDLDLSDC

The maximal inhibition of O=C1C(=Cc2cn(Cc3ccc(F)cc3)c3ccccc23)N2CCC1CC2 is reported as 52 ± 4.5% (CNR2; cAMP level; CHO expressing human CB2; added: forskolin; negative means cAMP increase).
With CCCCCn1cc(C(=O)c2cccc3ccccc23)c2cc(O)ccc21 the Emax was 55.1 ± 2.7 % inhibition (CNR2; adenylyl cyclase activity, agonist; CHO cells expressing human CB2; 10 µM, added: forskolin).
With CCOC(=O)C(CC)(CC)NC(=O)c1ccc(C2CC2)c(Cc2ccc(F)cc2)n1 the selectivity ratio was 21 (CNR2; [3H]CP55940 displacement; CHO cell membranes; baseline: Ki CB1 over Ki CB2).
The Emax of CC1=C[C@H]2c3c(O)cc(CCc4ccccc4)cc3OC(C)(C)[C@@H]2CC1 is reported as 116% (CNR2; GTPγS binding, agonist, radiometric; cell membranes).
The Emax of CC(O)CCn1cc(C(=O)c2cccc3ccccc23)c2ccccc21 (stereo not shown) is reported as 54.4 ± 6.2 % inhibition (CNR2; adenylyl cyclase activity, agonist; CHO cells expressing human CB2; 10 µM, added: forskolin).
The maximal inhibition of COC(=O)c1ccc2c(C=C3C(=O)C4CCN3CC4)cn(Cc3ccccc3)c2c1 is reported as -200 ± 8.6% (CNR2; cAMP level; CHO expressing human CB2; added: forskolin; negative means cAMP increase).
The Emax of CCCCCn1cc(C(=O)c2cccc3ccccc23)c2ccccc21 is reported as 73.5 ± 3.9% (CNR2; Gαi1 engagement, agonist, BRET; HEK293T; baseline: reference agonist).
With CCOC(=O)[C@](CC)(CCCSCCOCCOCCNc1ccc([N+](=O)[O-])c2nonc12)NC(=O)c1ccc(C2CC2)c(Cc2ccc(F)cc2)n1 the Emax was 72% (CNR2; cAMP, agonist).
With CCCCCn1cc(C(=O)c2cccc3c2CC(C)(C)C3)c2ccccc21 the Emax was 24.7 ± 3% (CNR2 (Homo sapiens, UniProt P34972, V261L); Gαi1 engagement, agonist, BRET; baseline: reference agonist at wild-type CB2).
For CCOC(=O)[C@](CC)(CCCSCCOCCOCCNC(=O)c1ccc(-c2c3ccc(=N)c(S(=O)(=O)O)c-3oc3c(S(=O)(=O)O)c(N)ccc23)c(C(=O)O)c1)NC(=O)c1ccc(C2CC2)c(Cc2ccc(F)cc2)n1, the Emax was 100% (CNR2; cAMP, agonist).
The Emax of CCCCCn1cc(C(=O)c2ccc3c(c2)CC(C)(C)C3)c2ccccc21 is reported as 80.8% (CNR2; β-arrestin recruitment, agonist, BRET; HEK-293T).
CCCCn1cc(C(=O)c2cccc3ccccc23)c2cc(O)ccc21 has an Emax of 55.8 ± 4.9 % inhibition (CNR2; adenylyl cyclase activity, agonist; CHO cells expressing human CB2; 10 µM, added: forskolin).
CCOC(=O)C(CC)(CC)NC(=O)c1ccc(N2CC(OC)C2)c(OC[C@H]2C[C@@H]2CO)n1 has an Emax of -130% (CNR2; cAMP, agonist, TR-FRET; CHO).

Excerpt of the above:
With CCCCCn1cc(C(=O)c2cccc3ccccc23)c2cc(O)ccc21 the Emax was 55.1 ± 2.7 % inhibition (CNR2; adenylyl cyclase activity, agonist; CHO cells expressing human CB2; 10 µM, added: forskolin).
